Assay results pooled from the literature.
Each numbered part is a random draw from the data of one study; scales do not carry over between parts. Several values in a cell are separate wells, animals, samples, runs or records.
Sequence of UniProt P07949 (whole entry, looked up): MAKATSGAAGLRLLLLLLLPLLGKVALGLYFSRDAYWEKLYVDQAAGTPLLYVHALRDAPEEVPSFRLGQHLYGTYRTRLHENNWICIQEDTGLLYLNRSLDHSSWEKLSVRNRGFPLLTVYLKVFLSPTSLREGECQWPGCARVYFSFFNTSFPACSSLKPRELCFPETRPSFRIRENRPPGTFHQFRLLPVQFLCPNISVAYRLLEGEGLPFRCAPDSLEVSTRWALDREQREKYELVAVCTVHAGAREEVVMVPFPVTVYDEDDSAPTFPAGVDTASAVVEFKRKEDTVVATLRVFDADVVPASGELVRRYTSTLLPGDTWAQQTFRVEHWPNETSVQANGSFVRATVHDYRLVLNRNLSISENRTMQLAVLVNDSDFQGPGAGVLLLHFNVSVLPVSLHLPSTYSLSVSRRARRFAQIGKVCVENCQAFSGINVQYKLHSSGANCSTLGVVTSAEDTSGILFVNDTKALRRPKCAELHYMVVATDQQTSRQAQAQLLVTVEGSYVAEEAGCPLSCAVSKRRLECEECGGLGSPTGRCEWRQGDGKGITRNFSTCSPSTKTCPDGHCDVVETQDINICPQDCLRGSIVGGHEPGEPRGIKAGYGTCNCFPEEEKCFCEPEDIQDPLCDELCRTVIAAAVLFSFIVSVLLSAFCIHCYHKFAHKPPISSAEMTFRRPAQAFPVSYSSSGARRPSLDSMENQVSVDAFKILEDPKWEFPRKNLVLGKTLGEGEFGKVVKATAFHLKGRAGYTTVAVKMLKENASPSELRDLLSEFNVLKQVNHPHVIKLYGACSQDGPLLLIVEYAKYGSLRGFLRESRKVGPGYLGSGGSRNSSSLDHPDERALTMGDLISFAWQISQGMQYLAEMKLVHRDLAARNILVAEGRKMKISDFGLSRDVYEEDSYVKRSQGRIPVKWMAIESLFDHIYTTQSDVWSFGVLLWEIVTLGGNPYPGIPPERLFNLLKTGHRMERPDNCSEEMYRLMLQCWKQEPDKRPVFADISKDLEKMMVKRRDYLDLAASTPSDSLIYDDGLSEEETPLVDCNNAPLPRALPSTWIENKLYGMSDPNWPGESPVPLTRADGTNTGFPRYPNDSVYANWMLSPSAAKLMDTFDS
Sequence of UniProt P36894 (whole entry, looked up): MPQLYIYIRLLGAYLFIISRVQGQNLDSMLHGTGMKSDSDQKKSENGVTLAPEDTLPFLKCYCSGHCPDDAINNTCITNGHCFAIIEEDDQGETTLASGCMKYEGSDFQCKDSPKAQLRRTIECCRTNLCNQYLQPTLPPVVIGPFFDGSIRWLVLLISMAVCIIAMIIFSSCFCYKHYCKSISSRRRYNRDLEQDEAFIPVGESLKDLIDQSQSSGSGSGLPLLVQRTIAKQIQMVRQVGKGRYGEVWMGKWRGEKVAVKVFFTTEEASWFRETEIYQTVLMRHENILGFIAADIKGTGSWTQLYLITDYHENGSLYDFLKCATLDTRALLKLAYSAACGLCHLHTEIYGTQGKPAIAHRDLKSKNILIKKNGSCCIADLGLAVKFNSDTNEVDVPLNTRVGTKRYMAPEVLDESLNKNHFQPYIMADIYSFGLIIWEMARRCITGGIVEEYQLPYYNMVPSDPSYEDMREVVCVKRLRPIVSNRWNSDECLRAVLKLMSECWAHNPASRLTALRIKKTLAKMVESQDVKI
Sequence of UniProt P05771 (whole entry, looked up): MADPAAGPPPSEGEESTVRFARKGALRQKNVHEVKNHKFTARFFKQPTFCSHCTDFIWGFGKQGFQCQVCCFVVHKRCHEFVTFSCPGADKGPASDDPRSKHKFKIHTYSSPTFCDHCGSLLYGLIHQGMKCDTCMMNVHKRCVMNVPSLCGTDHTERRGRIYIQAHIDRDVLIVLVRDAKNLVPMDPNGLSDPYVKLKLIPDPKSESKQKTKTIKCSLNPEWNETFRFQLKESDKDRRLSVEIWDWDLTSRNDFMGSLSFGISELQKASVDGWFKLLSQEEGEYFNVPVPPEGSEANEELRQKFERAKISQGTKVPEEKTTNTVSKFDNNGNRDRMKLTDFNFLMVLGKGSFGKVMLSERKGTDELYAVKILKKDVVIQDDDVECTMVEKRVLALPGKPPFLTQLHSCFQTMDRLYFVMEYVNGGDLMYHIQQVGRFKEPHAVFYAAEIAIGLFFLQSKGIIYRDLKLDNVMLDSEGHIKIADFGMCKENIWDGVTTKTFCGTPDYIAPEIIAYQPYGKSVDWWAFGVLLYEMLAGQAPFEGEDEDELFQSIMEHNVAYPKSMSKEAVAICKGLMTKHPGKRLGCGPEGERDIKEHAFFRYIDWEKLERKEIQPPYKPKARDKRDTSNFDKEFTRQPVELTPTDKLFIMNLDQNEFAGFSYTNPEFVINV

Study 1 — tested at: 1 µM
SMILES: CCS(=O)(=O)c1cc2cc(C[C@](O)(CC(C)(C)c3ccc(F)cc3C(N)=O)C(F)(F)F)[nH]c2cn1
target | assay | remaining binding
Proto-oncogene tyrosine-protein kinase Src (SRC, Homo sapiens, UniProt P12931) | cell-free assay, competition with immobilised ligand | 100%
Mitogen-activated protein kinase kinase kinase kinase 4 (MAP4K4, Homo sapiens, UniProt O95819) | cell-free assay, competition with immobilised ligand | 92%
Ephrin type-B receptor 4 (EPHB4, Homo sapiens, UniProt P54760) | cell-free assay, competition with immobilised ligand | 100%
Leukocyte tyrosine kinase receptor (LTK, Homo sapiens, UniProt P29376) | cell-free assay, competition with immobilised ligand | 97%
Non-receptor tyrosine-protein kinase TNK1 (TNK1, Homo sapiens, UniProt Q13470) | cell-free assay, competition with immobilised ligand | 98%
AP2-associated protein kinase 1 (AAK1, Homo sapiens, UniProt Q2M2I8) | binding | 100%
Ephrin type-A receptor 2 (EPHA2, Homo sapiens, UniProt P29317) | cell-free assay, competition with immobilised ligand | 81%
Dual specificity protein kinase CLK1 (CLK1, Homo sapiens, UniProt P49759) | cell-free assay, competition with immobilised ligand | 99%
Tyrosine-protein kinase Lyn (LYN, Homo sapiens, UniProt P07948) | cell-free assay, competition with immobilised ligand | 100%
Cyclin-dependent kinase 4, with cyclin D1 (CDK4, Homo sapiens, UniProt P11802) | cell-free assay, competition with immobilised ligand | 96%
Citron Rho-interacting kinase (CIT, Homo sapiens, UniProt O14578) | cell-free assay, competition with immobilised ligand | 100%
Serine/threonine-protein kinase 4 (STK4, Homo sapiens, UniProt Q13043) | cell-free assay, competition with immobilised ligand | 100%
Cytoplasmic tyrosine-protein kinase BMX (BMX, Homo sapiens, UniProt P51813) | cell-free assay, competition with immobilised ligand | 74%
Dual specificity tyrosine-phosphorylation-regulated kinase 1A (DYRK1A, Homo sapiens, UniProt Q13627) | cell-free assay, competition with immobilised ligand | 100%
Serine/threonine-protein kinase DCLK1 (DCLK1, Homo sapiens, UniProt O15075) | cell-free assay, competition with immobilised ligand | 99%
Receptor-type tyrosine-protein kinase FLT3, autoinhibited (FLT3, Homo sapiens, UniProt P36888) | cell-free assay, competition with immobilised ligand | 85%
Tyrosine-protein kinase receptor UFO (AXL, Homo sapiens, UniProt P30530) | cell-free assay, competition with immobilised ligand | 89%

Study 2 — action: inhibitor; tested at: 5 µM
SMILES: O=C1NC(=O)C(c2cn(-c3ccccc3)nc2-c2ccc(F)cc2)N1 (centres unmarked)
target | assay | system | conditions | how to read | log2 fold change
5'-AMP-activated protein kinase catalytic subunit alpha-1 (PRKAA1, Homo sapiens, UniProt Q13131) | kinase–CDC37 interaction |  | kinome plate 4@G07 | relative to: vehicle | 0.273
BCR-ABL human | kinase-CDC37 interaction | human cells |  | relative to: vehicle | -1.35
Serine/threonine-protein kinase 38 (STK38, Homo sapiens, UniProt Q15208) | kinase-CDC37 interaction | human cells |  | relative to: vehicle | -0.18
Protein kinase C beta type (PRKCB, Homo sapiens, UniProt P05771) | cell-based kinome screen | human cells |  | relative to: untreated control | -0.086 log2
Proto-oncogene tyrosine-protein kinase receptor Ret (RET, Homo sapiens, UniProt P07949) |  | human cells | cell-based kinome screen | relative to: vehicle | 0.21 and -0.151
Protein-tyrosine kinase 6 (PTK6, Homo sapiens, UniProt Q13882) | kinase activity |  | cell-based kinome screen | relative to: vehicle | -0.005
Serine/threonine-protein kinase 32C (STK32C, Homo sapiens, UniProt Q86UX6) | kinase activity |  | cell-based kinome screen | relative to: vehicle | 0.22
Cyclin-dependent kinase 11B (CDK11B, Homo sapiens, UniProt P21127) |  | human cells |  | relative to: vehicle | -0.156
Platelet-derived growth factor receptor beta, with CDC37 (PDGFRB, Homo sapiens, UniProt P09619) | kinase–CDC37 interaction |  | kinome plate 3@D06 | relative to: vehicle | 0.154
Activin receptor type-1C (Homo sapiens, UniProt Q8NER5) | cell-based kinome profiling | human cells |  | relative to: vehicle control | -0.158
Fas-activated serine/threonine kinase (Homo sapiens, UniProt Q14296) | cell-based kinome screen | human cells |  | relative to: vehicle | -0.256
Bone morphogenetic protein receptor type-1A (BMPR1A, Homo sapiens, UniProt P36894) | cell-based kinome profiling | human cells |  | relative to: vehicle control | -0.274

Study 3 — observed: enzyme activity; tested at: 10 µM
SMILES: Cc1sc(C(=O)NC2COC2)cc1-n1cc(NC(=O)Nc2c(F)cccc2Cl)cn1
target | assay | how to read | remaining activity [%]
Cyclin-dependent kinase 2, with cyclin E2 (CDK2, Homo sapiens, UniProt P24941) |  | relative to: untreated control | 89.3
Mitogen-activated protein kinase 1 (MAPK1, Homo sapiens, UniProt P28482) |  | relative to: untreated control | 85.5
Tyrosine-protein kinase Fes/Fps (FES, Homo sapiens, UniProt P07332) |  | relative to: untreated control | 93.2
Serine/threonine-protein kinase 32B (STK32B, Homo sapiens, UniProt Q9NY57) |  | relative to: untreated control | 81.7
Serine/threonine-protein kinase Sgk3 (SGK3, Homo sapiens, UniProt Q96BR1) |  | relative to: untreated control | 89.1
Serine/threonine-protein kinase MRCK gamma (CDC42BPG, Homo sapiens, UniProt Q6DT37) |  | relative to: untreated control | 101
Myosin-IIIa (MYO3A, Homo sapiens, UniProt Q8NEV4) | inhibitor |  | 91.1
Serine/threonine-protein kinase PAK 4 (PAK4, Homo sapiens, UniProt O96013) |  | relative to: untreated control | 103
Phosphorylase b kinase gamma catalytic chain, liver/testis isoform (PHKG2, Homo sapiens, UniProt P15735) |  | relative to: untreated control | 80.5

Study 4 — action: inhibitor; tested at: concentration not given; setting: absolute value; added: with minus without ssDNA
Target: DNA polymerase theta, helicase domain (POLQ, Homo sapiens, UniProt O75417)
Sequence of UniProt O75417 (whole entry, looked up): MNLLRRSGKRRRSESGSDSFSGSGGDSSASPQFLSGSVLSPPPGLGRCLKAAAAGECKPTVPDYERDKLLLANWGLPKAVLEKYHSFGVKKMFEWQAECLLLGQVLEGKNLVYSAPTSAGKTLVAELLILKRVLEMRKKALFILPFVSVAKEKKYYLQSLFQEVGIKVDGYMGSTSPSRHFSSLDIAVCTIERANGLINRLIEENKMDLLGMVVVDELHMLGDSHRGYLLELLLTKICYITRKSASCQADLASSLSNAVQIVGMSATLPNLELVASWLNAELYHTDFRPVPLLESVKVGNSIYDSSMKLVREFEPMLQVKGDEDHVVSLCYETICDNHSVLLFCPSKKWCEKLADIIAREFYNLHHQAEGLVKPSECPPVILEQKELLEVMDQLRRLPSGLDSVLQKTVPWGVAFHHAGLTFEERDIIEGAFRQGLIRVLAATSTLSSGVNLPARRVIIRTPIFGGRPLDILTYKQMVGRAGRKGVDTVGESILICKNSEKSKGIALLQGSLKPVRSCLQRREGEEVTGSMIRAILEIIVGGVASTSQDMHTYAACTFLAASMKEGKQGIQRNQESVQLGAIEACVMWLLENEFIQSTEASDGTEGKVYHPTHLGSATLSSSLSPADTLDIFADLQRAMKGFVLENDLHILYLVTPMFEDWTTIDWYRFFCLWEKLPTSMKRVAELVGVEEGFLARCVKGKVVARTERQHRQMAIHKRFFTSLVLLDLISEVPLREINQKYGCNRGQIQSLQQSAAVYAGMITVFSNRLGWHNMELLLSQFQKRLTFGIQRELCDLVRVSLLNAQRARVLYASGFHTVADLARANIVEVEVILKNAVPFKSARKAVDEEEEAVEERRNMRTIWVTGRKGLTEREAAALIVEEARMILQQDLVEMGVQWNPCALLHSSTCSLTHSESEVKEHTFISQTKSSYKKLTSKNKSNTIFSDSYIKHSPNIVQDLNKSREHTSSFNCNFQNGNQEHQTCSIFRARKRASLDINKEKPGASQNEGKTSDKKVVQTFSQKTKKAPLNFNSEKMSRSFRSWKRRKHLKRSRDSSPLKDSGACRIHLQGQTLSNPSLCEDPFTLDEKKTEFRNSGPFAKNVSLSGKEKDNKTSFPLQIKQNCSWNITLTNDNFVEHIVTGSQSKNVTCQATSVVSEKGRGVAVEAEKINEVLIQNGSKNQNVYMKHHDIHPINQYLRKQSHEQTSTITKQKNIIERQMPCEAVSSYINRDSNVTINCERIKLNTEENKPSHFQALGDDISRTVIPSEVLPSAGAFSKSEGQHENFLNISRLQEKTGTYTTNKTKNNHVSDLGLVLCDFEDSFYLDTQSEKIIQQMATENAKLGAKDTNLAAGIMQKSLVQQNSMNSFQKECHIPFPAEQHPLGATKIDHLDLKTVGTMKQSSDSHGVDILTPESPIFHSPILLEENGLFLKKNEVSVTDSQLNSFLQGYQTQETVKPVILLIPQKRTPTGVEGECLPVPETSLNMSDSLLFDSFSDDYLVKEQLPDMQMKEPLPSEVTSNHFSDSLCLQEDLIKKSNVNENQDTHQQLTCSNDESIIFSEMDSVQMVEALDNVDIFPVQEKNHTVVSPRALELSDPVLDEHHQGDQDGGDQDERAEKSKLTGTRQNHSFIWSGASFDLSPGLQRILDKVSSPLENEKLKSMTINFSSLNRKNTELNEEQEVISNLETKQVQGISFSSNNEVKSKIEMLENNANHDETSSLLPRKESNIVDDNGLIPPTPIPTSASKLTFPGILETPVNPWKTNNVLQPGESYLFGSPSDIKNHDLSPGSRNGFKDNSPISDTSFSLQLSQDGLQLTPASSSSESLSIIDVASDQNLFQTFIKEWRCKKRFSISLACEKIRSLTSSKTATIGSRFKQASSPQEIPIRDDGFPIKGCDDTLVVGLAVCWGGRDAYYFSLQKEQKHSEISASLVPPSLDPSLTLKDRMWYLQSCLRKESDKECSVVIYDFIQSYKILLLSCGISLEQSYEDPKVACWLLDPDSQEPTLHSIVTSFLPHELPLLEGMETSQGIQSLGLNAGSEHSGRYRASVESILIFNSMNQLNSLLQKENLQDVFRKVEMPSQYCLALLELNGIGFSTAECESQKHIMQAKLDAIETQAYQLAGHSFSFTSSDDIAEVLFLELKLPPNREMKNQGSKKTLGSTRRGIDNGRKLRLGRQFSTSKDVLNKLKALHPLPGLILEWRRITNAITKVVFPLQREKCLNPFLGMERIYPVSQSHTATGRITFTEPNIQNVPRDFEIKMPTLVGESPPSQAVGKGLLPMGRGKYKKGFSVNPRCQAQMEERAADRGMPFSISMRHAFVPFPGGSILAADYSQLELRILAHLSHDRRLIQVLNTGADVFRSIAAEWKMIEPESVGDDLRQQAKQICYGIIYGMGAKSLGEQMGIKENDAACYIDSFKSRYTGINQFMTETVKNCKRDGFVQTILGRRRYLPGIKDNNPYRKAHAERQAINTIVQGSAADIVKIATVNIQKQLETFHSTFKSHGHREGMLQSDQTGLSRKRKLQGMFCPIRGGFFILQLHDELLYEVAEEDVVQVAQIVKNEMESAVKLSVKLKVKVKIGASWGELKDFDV
Structure (SMILES) | difference in remaining activity
COc1ccc(S(=O)(=O)c2cnc(SCC(=O)Nc3cc(F)ccc3C)[nH]c2=O)cc1Cl | 20.9%
CC(=O)Oc1ccccc1C(=O)Nc1ncc([N+](=O)[O-])s1 | 4.44%
Cc1ccc(-c2n[nH]c3c2C(c2cccc(O)c2)N(c2ccc(C(=O)O)cc2)C3=O)cc1 (centres unmarked) | 5.61%
Cc1c(Cl)cccc1NC(=O)CSc1ncc(S(=O)(=O)c2ccc(C(C)C)cc2)c(=O)[nH]1 | 22%
O=c1[nH]c2cc(Cl)ccc2c(O)c1-c1cccc(Oc2ccccc2)c1 | 7.05%
CC(C)(C)c1ccc(S(=O)(=O)c2cnc(SCC(=O)Nc3ccc4c(c3)OCCO4)[nH]c2=O)cc1 | 7.66%
COc1cccc2c1C(=O)c1c(O)c3c(c(O)c1C2=O)C[C@@](O)(C(C)=O)C[C@@H]3O[C@H]1C[C@H](N)[C@H](O)[C@H](C)O1 | 47.7%
N#Cc1c(O)c2c(-c3ccc(-c4ccccc4O)cc3)csc2[nH]c1=O | 2.53%
O=C(O)[C@]1(Cc2cccc(Nc3nccs3)n2)CC[C@@H](Oc2cccc(Cl)c2F)CC1 | 4.53%
CC(=O)Oc1cccc2c1C(=O)c1c(OC(C)=O)cc(C(=O)O)cc1C2=O | 1.57%
Cc1ccc(C2C=C(c3ccccc3)N=C3N=C(NS(C)(=O)=O)NN32)cc1 (centres unmarked) | 0.782%
O=C(O)c1cccnc1Nc1cccc(C(F)(F)F)c1 | 25.6%
